Experimental data collected from several papers.
Each numbered part is a random draw from the data of one study; scales do not carry over between parts.
Chain of UniProt O15294 (whole entry, looked up): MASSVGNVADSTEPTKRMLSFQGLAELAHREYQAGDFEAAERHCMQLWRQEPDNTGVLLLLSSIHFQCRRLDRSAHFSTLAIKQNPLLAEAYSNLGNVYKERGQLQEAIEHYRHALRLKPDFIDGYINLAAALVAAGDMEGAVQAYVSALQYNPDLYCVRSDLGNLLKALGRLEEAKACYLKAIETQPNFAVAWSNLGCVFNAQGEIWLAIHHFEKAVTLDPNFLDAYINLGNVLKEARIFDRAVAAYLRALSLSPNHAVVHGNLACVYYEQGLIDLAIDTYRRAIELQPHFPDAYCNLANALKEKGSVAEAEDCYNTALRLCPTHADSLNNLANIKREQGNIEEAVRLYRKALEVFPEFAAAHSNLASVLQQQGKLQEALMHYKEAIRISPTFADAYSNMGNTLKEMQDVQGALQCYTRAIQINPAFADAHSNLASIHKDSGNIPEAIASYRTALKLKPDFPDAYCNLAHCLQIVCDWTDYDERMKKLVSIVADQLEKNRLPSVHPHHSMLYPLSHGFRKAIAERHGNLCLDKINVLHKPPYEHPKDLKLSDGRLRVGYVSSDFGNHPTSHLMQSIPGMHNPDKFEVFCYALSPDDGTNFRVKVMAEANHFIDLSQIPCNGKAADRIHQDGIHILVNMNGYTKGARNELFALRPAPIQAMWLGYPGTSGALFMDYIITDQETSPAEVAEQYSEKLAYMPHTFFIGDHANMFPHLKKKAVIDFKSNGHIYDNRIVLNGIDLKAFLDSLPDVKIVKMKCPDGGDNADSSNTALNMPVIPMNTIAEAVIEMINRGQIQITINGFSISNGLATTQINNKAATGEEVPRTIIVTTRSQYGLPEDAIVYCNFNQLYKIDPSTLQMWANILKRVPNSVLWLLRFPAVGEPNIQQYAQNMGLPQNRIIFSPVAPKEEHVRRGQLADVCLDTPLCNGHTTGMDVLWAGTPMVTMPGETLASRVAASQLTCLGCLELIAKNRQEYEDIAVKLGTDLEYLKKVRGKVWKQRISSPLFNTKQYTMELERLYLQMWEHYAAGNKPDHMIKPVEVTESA

Sample 1
Target: Protein C-ets-1 (ETS1, Homo sapiens, UniProt P14921, residues 1-441, full length assumed)
Technique: protein-binding microarray
Molecule type: double-stranded DNA, one strand shown
Matrix: in vitro
Tested at: not given
Setting: k-mer, scored over probes, only values ≥0.25
Reading: higher = stronger binding
Residues (chain): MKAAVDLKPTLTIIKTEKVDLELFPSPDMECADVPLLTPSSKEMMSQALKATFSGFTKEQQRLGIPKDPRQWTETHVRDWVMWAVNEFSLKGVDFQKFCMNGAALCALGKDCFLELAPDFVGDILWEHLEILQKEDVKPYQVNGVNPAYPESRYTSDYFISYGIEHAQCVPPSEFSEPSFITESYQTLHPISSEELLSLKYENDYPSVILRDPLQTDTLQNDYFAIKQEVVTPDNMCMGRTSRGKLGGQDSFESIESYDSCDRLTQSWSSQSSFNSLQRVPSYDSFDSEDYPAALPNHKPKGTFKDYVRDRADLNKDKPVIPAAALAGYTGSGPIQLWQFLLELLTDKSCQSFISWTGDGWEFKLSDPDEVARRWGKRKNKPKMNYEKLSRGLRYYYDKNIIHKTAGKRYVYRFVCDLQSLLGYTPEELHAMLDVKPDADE
For `CCGGGGCC`, the E-score was 0.267.
For `ACAGATCC`, the E-score was 0.261.
`GGACGTAA` gave an E-score of 0.267.
With `CGGAAAAA` the E-score was 0.373.
`AGGAAGTA` has an E-score of 0.459.
For `GCATCCTA`, the E-score was 0.346.
`CGGAAGTC` has an E-score of 0.492.
With `GGAAATCC` the E-score was 0.426.

Sample 2
Target: Ras GTPase-activating protein-binding protein 1, RRM domain (G3BP1, Homo sapiens, UniProt Q13283)
Chain of UniProt Q13283 (whole entry, looked up): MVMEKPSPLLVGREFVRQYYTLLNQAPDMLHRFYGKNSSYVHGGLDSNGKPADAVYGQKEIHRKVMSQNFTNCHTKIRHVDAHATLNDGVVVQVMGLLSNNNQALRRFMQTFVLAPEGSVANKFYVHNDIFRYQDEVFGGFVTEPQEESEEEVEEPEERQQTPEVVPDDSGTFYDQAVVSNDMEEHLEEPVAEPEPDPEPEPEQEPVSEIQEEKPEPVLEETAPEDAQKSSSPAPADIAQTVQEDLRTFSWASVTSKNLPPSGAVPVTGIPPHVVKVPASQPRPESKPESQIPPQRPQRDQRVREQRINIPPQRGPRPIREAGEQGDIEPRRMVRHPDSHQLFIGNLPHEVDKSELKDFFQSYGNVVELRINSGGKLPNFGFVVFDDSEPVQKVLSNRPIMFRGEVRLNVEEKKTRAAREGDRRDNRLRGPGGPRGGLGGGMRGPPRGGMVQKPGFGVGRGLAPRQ
Technique: RNA Bind-n-Seq
Molecule type: RNA
Matrix: in vitro
Tested at: 1 µM
Setting: whole 134-nt RNA, ends assumed
With: 150 mM KCl
Relative to: input library
Reading: higher = stronger binding
Shared flanks, not repeated: GGGAGUUCUACAGUCCGACGAUC … UGGAAUUCUCGGGUGUCAAGG
`UGGCCCUGGUGGCAUGCGGGGAGGAAGAGGUGGCCUCAUGGAUCGUGGUGGUCCCGGUAGAAUGUUCAGAGGUGGCCGUGGUGGAGACAG` gave a log2 enrichment of 0.953.
`UUCAGGAUGAAGAUGCAUCAGGGGGCGAUCAAGAUCAGGAAGAAAGAAGAUGGAACAAAAGGACUCAGCAGAUGCUUCAUGGUCUUCAGG` gave a log2 enrichment of -0.224.
`CACAGACAACACGCACCCACACAGACACAGAGGGAAGGGGUUGGGAUGGGGACAGGGUGCACAGCAGGGCGGGGUAGGACCCCAGCCCCC` gave a log2 enrichment of -0.403.
For `UCCUGUGCUACACAUCGUAUGUACCGAAUCGGGAAAAAAGGGAAAAAAGGAAAAAAGGGAAAGUAUUAUGUUACGCCGUUCGGAUCUGCA`, the log2 enrichment was 0.0425.
With `UUGCCACUCUAAAUUCAGAAGAGGAGAGCGACCCUCCAACCUACAAGGAUGCCUUCCCUCCACUUCCUGAGAAAGCUGCUUGCCUGGAAA` the log2 enrichment was -0.0639.
With `CAAGUCCUGUGCUACACAUCGUAUGUACCGAAUCGGGUUUUUUUGGGAGGGUGGGAAAGUAUUAUGUUACGCCGUUCGGAUCUGCACUUC` the log2 enrichment was 0.483.
`AAGUCCUGUGCUACACAUCGUAUGUACCGAAUCGGAAAAAGGAAAAAGGGAAAAAGGAAAGUAUUAUGUUACGCCGUUCGGAUCUGCACU` gave a log2 enrichment of 0.0766.
For `AAGUCCUGUGCUACACAUCGUAUGUACCGAAUCGGGAAAGGGAAAAAGGGUUUGGGAAAGUAUUAUGUUACGCCGUUCGGAUCUGCACUU`, the log2 enrichment was 0.533.

Sample 3
Target: Histone acetyltransferase KAT6A, winged helix 1, GST fusion (KAT6A, Homo sapiens, UniProt Q92794, residues 1-85)
Technique: protein binding microarray
Molecule type: double-stranded DNA, one strand shown
Matrix: in vitro
Tested at: not given
Setting: 8-mer, flanks averaged, mean of 2 arrays, mostly near background
Relative to: not given
Reading: higher = stronger binding
Residues (chain): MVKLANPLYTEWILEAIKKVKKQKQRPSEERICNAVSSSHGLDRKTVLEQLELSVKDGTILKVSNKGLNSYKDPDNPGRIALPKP
For `AAAGGACA`, the E-score was -0.189.
`AAAATCAT` has an E-score of -0.175.
For `AAATACAG`, the E-score was -0.236.
For `ACAAACCC`, the E-score was -0.0474.
For `GTACATCA`, the E-score was 0.0907.
For `GATCAGCC`, the E-score was -0.123.
The E-score of `TACGGATA` is reported as 0.131.
With `ACGGCTCA` the E-score was 0.207.

Further values, each from its own experiment
`HYPHHDYLWHPITNV`: “enrichment fold change” 3.22 (UDP-N-acetylglucosamine--peptide N-acetylglucosaminyltransferase 110 kDa subunit (OGT, Homo sapiens, UniProt O15294); binding, phage display NGS; peptide; concentration not given; relative to: input library).

Repeated from above (sample 2):
With `CAAGUCCUGUGCUACACAUCGUAUGUACCGAAUCGGGUUUUUUUGGGAGGGUGGGAAAGUAUUAUGUUACGCCGUUCGGAUCUGCACUUC` the log2 enrichment was 0.483.
